# Results gathered from unrelated publications.
# Numbers after ± are the reported error.
Structure (SMILES),cell line,test,conditions,IC50
CC1(C)[C@@H](O)CC[C@]2(C)[C@H]3C(=O)C=C4[C@@H]5C[C@@](C)(C(=O)O)CC[C@]5(C)CC[C@@]4(C)[C@]3(C)CC[C@@H]12,KARPAS-299,"cell growth or viability, MTT",,> 40 µM
S=c1n(-c2ccccc2)c2c3ccccc3nc3[n+]2[n]1[Ir-3]12([S]3)([c]3ccc4ccccc4c3-c3sc4ccccc4[n+]31)[c]1ccc3ccccc3c1-c1sc3ccccc3[n+]12,MRC9,"cell viability, MTT",dark,> 25 µM
O=[N+]([O-])c1ccc(/N=N/c2ccc(O)c(O)c2)cc1,HEK293T,"cell growth, PrestoBlue",72 h,4.3 µM
C=C1C(=O)OC2C1CCC1(C)CC1CCC1(C)OC21 (centres unmarked),TEX,"cell growth, inhibitor, Alamar blue",48 h,3.8 ± 0.2 µM
Cc1cc(NC(=O)c2cccc(N)c2)ccc1Nc1nccc(-c2cccnc2)n1,SH-SY5Y MKK7-ACT,"c-Jun phosphorylation, inhibitor, HTRF, refers to: phospho-c-Jun Ser63","6 h, with: doxycycline",2.13 ± 0.135 µM
CC1(C)C=Cc2c(O)cc(/C=C/c3ccc(O)cc3O)cc2O1,SAS,"cell growth or viability, MTT",72 h,22 µM
COc1ccc([C@@H]2CC(=O)c3c(O)cc(O[C@@H]4O[C@H](CO[C@@H]5O[C@@H](C)[C@H](O)[C@@H](O)[C@H]5O)[C@@H](O)[C@H](O)[C@H]4O)cc3O2)cc1O,A549,"cell growth or viability, MTS",72 h,58.7 µg/mL
O=C(CCc1ccc(CNC(C(=O)OC2CCCC2)C2CCCCC2)cn1)NO (centres unmarked),human CD14+ monocytes,M-CSF differentiation,"20 h then washout, with: M-CSF",0.019 µM
C=CC(=O)Nc1ccc(-c2c(-c3ccc(Oc4cccc(C)n4)cc3)c3c(N)ncnc3n2C)cc1,SNU-16,"cell growth or viability, ATP luminescence",96 h,0.0006 µM
CCn1c[n+](CC)c2ccccc21,RC-124 kidney epithelial,"cell proliferation, crystal violet staining",96 h,57 ± 8.9 µM
COc1ccc2c(c1)c(C)c1c(-c3ccccc3)c(S(=O)(=O)c3ccc(C)cc3)c3ccccc3n12,LS174T,"cell growth or viability, MTT",72 h,> 100 µM
Cc1cc(/C=C/C#N)cc(C)c1Oc1cc(Nc2ccc(C#N)cn2)nc2ccncc12,MOLT-3,,48 h,> 120 µM
Clc1ccc(C=[N+]2N=C(Nc3ccccc3)[S][Pd-]2([Cl])[Cl])s1,CRFK,cell growth or viability,,> 100 µM
COc1ccc(/C=C/C2=[N+]3C(=C(CO)c4c(C)cc(/C=C/c5ccc(OC)cc5)n4[B-]3(F)F)C(C)=C2)cc1,RPE-1,"cell growth or viability, resazurin",dark,> 100 µM
CC1(C)Cc2c(-c3ccccc3)c(-c3ccc(Cl)cc3)c(CC(=O)O)n2C1,mouse peritoneal macrophages,LTB4 production,with: LPS,1.6 µM
Cc1c(C)c(C)[c-](C)c1C.O=[N+]([O-])c1c[c-]c(-c2ccccn2)cc1.[Cl-].[Ir+3],A2780 cells,"cell growth, SRB","24 h exposure, 72 h recovery",24.7 ± 2.3 µM
C=CCc1cc(OC)c(OC(C)=O)c(OC)c1,RT-112,MTT,24 h,> 50 µM
CC(C)Cc1ccc(C(C)C(=O)[O][Pt]([NH2])([NH2])([Cl])([Cl])[O]C(=O)CCCc2ccccc2)cc1 (centres unmarked),C13 cisplatin-resistant,"cytotoxicity, MTT",72 h,1.65 ± 0.11 µM
Cc1c(C(=O)/C=C/c2cccs2)nnn1-c1c(Cl)cc(Cl)cc1Cl,THLE-2,"cell growth or viability, MTT",,32.5 µM
O=C(c1cc(Cc2n[nH]c(=O)c3ccccc23)ccc1F)N1CCN(C(=O)C2CC2)CC1,U87,"cell viability, MTT",168 h,27.7 ± 1.3 µM

# For quick reference, copied from above:
Structure (SMILES),cell line,test,conditions,IC50
COc1ccc([C@@H]2CC(=O)c3c(O)cc(O[C@@H]4O[C@H](CO[C@@H]5O[C@@H](C)[C@H](O)[C@@H](O)[C@H]5O)[C@@H](O)[C@H](O)[C@H]4O)cc3O2)cc1O,A549,"cell growth or viability, MTS",72 h,58.7 µg/mL
